Measurements from different studies.
Compare with care: the assays were run in different laboratories. ± gives the spread as reported.
CNR1: Cannabinoid receptor 1 (CNR1, Homo sapiens, UniProt P21554)
Sequence of UniProt P21554 (whole entry, looked up): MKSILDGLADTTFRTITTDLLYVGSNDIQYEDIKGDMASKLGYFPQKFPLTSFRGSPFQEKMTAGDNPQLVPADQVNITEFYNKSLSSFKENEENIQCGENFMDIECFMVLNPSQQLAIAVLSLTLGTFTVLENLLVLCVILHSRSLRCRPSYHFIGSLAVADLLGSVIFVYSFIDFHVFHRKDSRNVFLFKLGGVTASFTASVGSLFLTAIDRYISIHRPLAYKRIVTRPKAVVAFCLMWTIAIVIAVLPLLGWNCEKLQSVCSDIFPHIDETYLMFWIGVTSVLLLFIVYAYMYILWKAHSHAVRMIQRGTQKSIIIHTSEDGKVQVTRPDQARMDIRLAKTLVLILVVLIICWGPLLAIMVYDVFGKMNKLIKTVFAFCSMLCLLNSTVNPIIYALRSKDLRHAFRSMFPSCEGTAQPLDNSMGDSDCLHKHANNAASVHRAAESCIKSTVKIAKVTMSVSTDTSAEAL
GLP1R: Glucagon-like peptide 1 receptor (GLP1R, Homo sapiens, UniProt P43220)
Sequence of UniProt P43220 (whole entry, looked up): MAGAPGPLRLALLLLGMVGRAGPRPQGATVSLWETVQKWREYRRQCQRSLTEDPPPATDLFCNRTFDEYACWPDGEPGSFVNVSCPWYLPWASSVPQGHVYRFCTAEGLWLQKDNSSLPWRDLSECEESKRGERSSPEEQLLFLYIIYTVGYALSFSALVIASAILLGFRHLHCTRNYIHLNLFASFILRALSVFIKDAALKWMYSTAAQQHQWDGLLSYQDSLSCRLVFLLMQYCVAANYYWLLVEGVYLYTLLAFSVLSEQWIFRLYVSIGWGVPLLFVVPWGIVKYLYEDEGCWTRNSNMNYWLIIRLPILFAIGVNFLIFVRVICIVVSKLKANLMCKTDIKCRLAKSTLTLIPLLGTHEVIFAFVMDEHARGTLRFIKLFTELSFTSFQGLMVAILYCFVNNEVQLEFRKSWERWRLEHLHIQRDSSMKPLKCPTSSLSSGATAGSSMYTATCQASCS
Sequence of UniProt Q9UKP6 (whole entry, looked up): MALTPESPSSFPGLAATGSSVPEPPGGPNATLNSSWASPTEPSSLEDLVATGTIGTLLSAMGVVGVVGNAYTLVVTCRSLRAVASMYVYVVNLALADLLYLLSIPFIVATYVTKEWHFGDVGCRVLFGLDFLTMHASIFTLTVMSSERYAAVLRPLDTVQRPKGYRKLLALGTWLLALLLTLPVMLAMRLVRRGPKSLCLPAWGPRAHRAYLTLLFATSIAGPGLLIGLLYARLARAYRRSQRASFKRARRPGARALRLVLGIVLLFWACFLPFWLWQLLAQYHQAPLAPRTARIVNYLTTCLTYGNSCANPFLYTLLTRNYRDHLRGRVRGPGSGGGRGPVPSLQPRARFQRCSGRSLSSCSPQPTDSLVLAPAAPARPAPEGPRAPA
Sequence of UniProt Q704Y3 (whole entry, unmodified, looked up): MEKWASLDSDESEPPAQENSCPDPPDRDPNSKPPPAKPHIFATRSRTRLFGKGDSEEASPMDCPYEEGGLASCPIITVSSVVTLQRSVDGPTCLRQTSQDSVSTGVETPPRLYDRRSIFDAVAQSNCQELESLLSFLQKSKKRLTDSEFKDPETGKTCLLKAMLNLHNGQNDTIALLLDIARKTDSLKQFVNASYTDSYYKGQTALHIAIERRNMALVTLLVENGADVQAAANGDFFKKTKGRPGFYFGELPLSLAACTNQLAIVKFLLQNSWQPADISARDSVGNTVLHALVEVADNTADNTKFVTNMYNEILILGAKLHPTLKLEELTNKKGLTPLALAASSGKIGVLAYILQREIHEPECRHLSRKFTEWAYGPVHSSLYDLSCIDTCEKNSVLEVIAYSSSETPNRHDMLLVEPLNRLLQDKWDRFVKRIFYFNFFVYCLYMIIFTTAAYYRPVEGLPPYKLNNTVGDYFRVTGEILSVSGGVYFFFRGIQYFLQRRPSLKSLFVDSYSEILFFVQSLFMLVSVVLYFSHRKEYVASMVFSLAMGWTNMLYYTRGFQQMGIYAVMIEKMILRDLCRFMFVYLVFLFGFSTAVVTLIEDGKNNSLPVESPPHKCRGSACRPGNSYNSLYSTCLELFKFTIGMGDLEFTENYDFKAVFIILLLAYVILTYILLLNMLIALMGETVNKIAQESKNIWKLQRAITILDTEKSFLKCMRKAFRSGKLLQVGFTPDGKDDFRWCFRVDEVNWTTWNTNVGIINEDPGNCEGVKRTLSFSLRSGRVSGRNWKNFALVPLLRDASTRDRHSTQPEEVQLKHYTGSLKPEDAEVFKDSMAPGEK
Sequence of UniProt Q15858 (whole entry, looked up): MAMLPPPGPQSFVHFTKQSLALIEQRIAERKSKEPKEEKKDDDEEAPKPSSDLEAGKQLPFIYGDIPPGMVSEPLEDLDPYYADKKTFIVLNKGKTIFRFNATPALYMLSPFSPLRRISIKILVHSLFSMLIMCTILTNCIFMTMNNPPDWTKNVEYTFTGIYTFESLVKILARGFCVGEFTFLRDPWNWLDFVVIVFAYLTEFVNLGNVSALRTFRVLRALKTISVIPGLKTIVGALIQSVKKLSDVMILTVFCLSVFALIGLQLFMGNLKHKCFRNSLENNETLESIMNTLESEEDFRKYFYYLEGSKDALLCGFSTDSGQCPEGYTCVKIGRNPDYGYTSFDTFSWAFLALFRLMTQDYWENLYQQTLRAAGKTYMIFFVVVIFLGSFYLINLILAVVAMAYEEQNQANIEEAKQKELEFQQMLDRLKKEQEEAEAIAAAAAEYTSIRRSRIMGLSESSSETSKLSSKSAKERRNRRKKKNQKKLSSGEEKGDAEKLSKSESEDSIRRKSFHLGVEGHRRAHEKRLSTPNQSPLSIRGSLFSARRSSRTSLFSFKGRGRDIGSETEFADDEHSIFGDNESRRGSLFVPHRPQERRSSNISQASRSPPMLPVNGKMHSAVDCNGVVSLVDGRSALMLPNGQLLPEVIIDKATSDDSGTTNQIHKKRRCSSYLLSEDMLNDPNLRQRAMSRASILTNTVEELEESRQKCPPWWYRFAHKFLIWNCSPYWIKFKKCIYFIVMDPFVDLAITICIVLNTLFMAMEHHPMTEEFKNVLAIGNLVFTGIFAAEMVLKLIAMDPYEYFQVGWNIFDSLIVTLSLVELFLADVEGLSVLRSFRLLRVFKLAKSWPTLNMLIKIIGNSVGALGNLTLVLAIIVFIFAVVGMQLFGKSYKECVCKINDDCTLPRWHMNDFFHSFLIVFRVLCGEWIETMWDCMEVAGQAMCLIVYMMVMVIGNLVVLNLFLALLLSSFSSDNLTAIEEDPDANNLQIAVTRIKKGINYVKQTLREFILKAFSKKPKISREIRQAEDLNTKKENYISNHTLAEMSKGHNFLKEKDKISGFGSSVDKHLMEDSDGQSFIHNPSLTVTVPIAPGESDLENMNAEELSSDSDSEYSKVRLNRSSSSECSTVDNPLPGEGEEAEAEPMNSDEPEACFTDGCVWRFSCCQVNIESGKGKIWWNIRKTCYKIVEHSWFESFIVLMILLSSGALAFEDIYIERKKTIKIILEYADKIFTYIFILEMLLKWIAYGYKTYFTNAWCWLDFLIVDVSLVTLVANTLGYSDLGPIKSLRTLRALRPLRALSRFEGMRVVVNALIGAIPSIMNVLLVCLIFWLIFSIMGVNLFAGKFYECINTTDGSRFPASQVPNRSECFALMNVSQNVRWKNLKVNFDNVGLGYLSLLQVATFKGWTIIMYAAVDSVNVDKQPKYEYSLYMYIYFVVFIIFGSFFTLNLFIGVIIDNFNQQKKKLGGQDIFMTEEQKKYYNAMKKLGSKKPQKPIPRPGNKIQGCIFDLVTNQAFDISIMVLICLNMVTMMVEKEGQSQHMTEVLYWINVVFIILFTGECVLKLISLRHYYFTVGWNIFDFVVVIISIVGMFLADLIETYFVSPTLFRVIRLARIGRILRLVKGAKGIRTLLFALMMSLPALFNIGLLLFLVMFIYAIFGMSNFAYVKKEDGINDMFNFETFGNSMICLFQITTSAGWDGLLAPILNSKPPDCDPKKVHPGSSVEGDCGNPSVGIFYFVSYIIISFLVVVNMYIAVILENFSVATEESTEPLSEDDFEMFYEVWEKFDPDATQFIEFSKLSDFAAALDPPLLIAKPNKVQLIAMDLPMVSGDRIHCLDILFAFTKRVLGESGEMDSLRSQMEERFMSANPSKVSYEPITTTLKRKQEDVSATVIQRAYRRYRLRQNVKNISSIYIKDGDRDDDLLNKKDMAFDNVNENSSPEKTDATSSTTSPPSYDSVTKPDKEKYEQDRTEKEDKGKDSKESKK

SMILES	target	assay	test system	setting	EC50 [nM]
CCCCCn1ccc(C(=O)NC(C)(C)c2cccc(C#N)c2)n1	CNR1	calcium signal, agonist	–	–	> 10000
CC[C@H](C)[C@@H]1NC(=O)[C@H](CC(N)=O)NC(=O)[C@@H]2CCCN2C(=O)[C@@H](NC(=O)CN(CC(N)=O)C(=O)[C@@H](N)CCC(N)=O)COC(=O)[C@H](CCSC)NC(=O)[C@H](Cc2c[nH]c3ccccc23)NC(=O)[C@H](CCC(N)=O)NC(=O)CNC(=O)[C@H](Cc2ccccc2)NC1=O	Fsr quorum sensing protein (Enterococcus faecalis, UniProt A0ACD6TCR9)	Fsr quorum sensing, agonist, β-galactosidase reporter	–	–	> 10000
CCCCC/C=C\C/C=C\C/C=C\C/C=C\CCCC(=O)NCCc1ccc(O)c(O)c1	Transient receptor potential cation channel subfamily V member 1 (Trpv1, Mus musculus, UniProt Q704Y3, D577E)	ion current, agonist, whole-cell patch clamp	–	24 °C, D577E, +80 mV	80 ± 30
CC[C@H](C)[C@H](NC(=O)[C@H](Cc1ccccc1)NC(=O)[C@H](CCC(=O)O)NC(=O)[C@H](CCCCN)NC(=O)[C@H](C)NC(=O)[C@H](C)NC(=O)[C@H](CCC(N)=O)NC(=O)CNC(=O)[C@H](CCC(=O)O)NC(=O)[C@H](CC(C)C)NC(=O)[C@H](Cc1ccc(O)cc1)NC(=O)[C@H](CO)NC(=O)[C@H](CO)NC(=O)[C@@H](NC(=O)[C@H](CC(=O)O)NC(=O)[C@H](CO)NC(=O)[C@@H](NC(=O)[C@H](Cc1ccccc1)NC(=O)[C@@H](NC(=O)CNC(=O)[C@H](CCC(=O)O)NC(=O)[C@H](C)NC(=O)[C@H](Cc1c[nH]cn1)NC[C@@H](N)Cc1ccccc1)[C@@H](C)O)[C@@H](C)O)C(C)C)C(=O)N[C@@H](C)C(=O)N[C@@H](Cc1c[nH]c2ccccc12)C(=O)N[C@@H](CC(C)C)C(=O)N[C@H](C(=O)N[C@@H](CCCCN)C(=O)NCC(=O)N[C@@H](CCCNC(=N)N)C(N)=O)C(C)C	GLP1R	reporter gene, agonist, luciferase	–	–	0.00398
CCN(Cc1ccccc1)C(=O)CCc1nc(CN2CCN(C(=O)Cc3ccc(OC)c(OC)c3)CC2)no1	Sodium channel protein type 9 subunit alpha (SCN9A, Homo sapiens, UniProt Q15858)	inactivation V1/2 shift, whole-cell patch clamp	stable HEK cells, NaV1.7 current	–	36.7 ± 17.7
CCCCCn1ccc(C(=O)NC(C)(C)c2ccc(NC(C)=O)cc2Cl)n1	CNR1	calcium signal, agonist	–	–	202
CC[C@H](C)[C@H](NC(=O)[C@H](Cc1ccccc1)NC(=O)[C@H](CCC(=O)O)NC(=O)[C@H](CCCCN)NC(=O)[C@H](C)NC(=O)[C@H](C)NC(=O)[C@H](CCC(N)=O)NC(=O)CNC(=O)[C@H](CCC(=O)O)NC(=O)[C@H](CC(C)C)NC(=O)[C@H](Cc1ccc(O)cc1)NC(=O)[C@H](CO)NC(=O)[C@H](CO)NC(=O)[C@@H](NC(=O)[C@H](CC(=O)O)NC(=O)[C@H](CO)NC(=O)[C@@H](NC(=O)[C@H](Cc1ccccc1)NC(=O)[C@@H](NC(=O)CNC(=O)[C@H](CCC(=O)O)NC(=O)CNC(=O)[C@@H](N)Cc1c[nH]cn1)[C@@H](C)O)[C@@H](C)O)C(C)C)C(=O)N[C@@H](C)C(=O)N[C@@H](Cc1c[nH]c2ccccc12)C(=O)N[C@@H](CC(C)C)C(=O)N[C@H](C(=O)N[C@@H](CCCCN)CN(CC(=O)N[C@@H](CCCNC(=N)N)C(=O)N[C@@H](CCCCN)CN(CC(N)=O)S(C)(=O)=O)S(C)(=O)=O)C(C)C	GLP1R	reporter gene, agonist, luciferase	–	–	0.06
CC[C@H](C)[C@H](NC(=O)[C@H](Cc1ccccc1)NC(=O)[C@H](CCC(=O)O)NC(=O)[C@H](CCCCN)NC(=O)[C@H](C)NC(=O)[C@H](C)NC(=O)[C@H](CCC(N)=O)NC(=O)CNC(=O)[C@H](CCC(=O)O)NC(=O)[C@H](CC(C)C)NC(=O)[C@H](Cc1ccc(O)cc1)NC(=O)[C@H]1CNC[C@@H]1NC(=O)[C@H](CO)NC(=O)C(C)(C)NC(=O)[C@H](CC(=O)O)NC(=O)[C@H](CO)NC(=O)[C@@H](NC(=O)[C@H](Cc1ccccc1)NC(=O)[C@@H](NC(=O)CNC(=O)[C@H](CCC(=O)O)NC(=O)[C@H](C)NC(=O)[C@@H](N)Cc1c[nH]cn1)[C@@H](C)O)[C@@H](C)O)C(=O)N[C@@H](C)C(=O)N[C@@H](Cc1c[nH]c2ccccc12)C(=O)N[C@@H](CC(C)C)C(=O)N[C@H](C(=O)N[C@@H](CCCCN)C(=O)NCC(=O)N[C@@H](CCCNC(=N)N)C(N)=O)C(C)C	GLP1R	β-arrestin-1 recruitment, agonist, BRET	HEK293FT with GRK5	–	4.9
CC(C)[C@H](NC(=O)[C@@H]1CSSC(C)(C)[C@H](NC(=O)[C@@H](N)CC(=O)O)C(=O)N[C@@H](Cc2ccccc2)C(=O)N[C@@H](Cc2c[nH]c3ccccc23)C(=O)N[C@@H](CCCCN)C(=O)N[C@@H](Cc2ccc(O)cc2)C(=O)N1)C(=O)O	Urotensin-2 receptor (UTS2R, Homo sapiens, UniProt Q9UKP6)	inositol phosphate, agonist, TR-FRET	–	–	0.631
CC[C@H](C)[C@H]1C(=O)N(Cc2cc3ccccc3c3ccccc23)C[C@@H]2N(C(=O)NCCCC(F)(F)F)CCC(=O)N12	ATP-dependent Clp protease proteolytic subunit (clpP, Staphylococcus aureus, UniProt Q2G036, Y61A)	activator	–	–	6400 ± 300
CC[C@H](C)[C@H](NC(=O)[C@H](Cc1ccccc1)NC(=O)[C@H](CCC(=O)O)NC(=O)[C@H](CCCCN)NC(=O)[C@H](C)NC(=O)[C@H](C)NC(=O)[C@H](CCC(N)=O)NC(=O)CNC(=O)[C@H](CCC(=O)O)NC(=O)[C@H](CC(C)C)NC(=O)[C@H](Cc1ccc(O)cc1)NC(=O)[C@H](CO)NC(=O)[C@H](CO)NC(=O)[C@@H](NC(=O)[C@H](CC(=O)O)NC(=O)[C@H](CO)NC(=O)[C@@H](NC(=O)CN(C[C@@H](NC(=O)CNC(=O)CN(C[C@H](C)NC(=O)[C@H](Cc1c[nH]cn1)NC(C)=O)S(=O)(=O)c1ccc(C(=O)O)cc1)[C@H](C)O)S(=O)(=O)Cc1ccccc1)[C@@H](C)O)C(C)C)C(=O)N[C@@H](C)C(=O)N[C@@H](Cc1c[nH]c2ccccc12)C(=O)N[C@@H](CC(C)C)C(=O)N[C@H](C(=O)N[C@@H](CCCCN)CN(CC(=O)N[C@@H](CCCNC(=N)N)C(=O)N[C@@H](CCCCN)CN(CC(N)=O)S(C)(=O)=O)S(C)(=O)=O)C(C)C	GLP1R	reporter gene, agonist, luciferase	–	–	> 1000
CCCCCn1ccc(C(=O)NC(C)(C)c2ccc(CN)cc2)n1	CNR1	calcium signal, agonist	–	–	2860
